Results gathered from unrelated publications.
Numbered parts are unrelated; each lists some results of a single study. Substitutions count along the parent as printed.

Study 1
Target: Phosphate system positive regulatory protein PHO4, full length, GST-tagged (PHO4, Saccharomyces cerevisiae, UniProt P07270, residues 1-312)
Technique: competition protein-binding microarray
Form: double-stranded DNA, one strand shown
Medium: in vitro
Tested at: 2 µM
Setting: whole 60-bp probe, lowest competitor level
Together with: Cbf1 competitor, 0.05 µM
Direction: higher = stronger binding
Measurement: fluorescence intensity
All sequences stand within: … GTCTTGATTCGCTTGACGCTGCTG
Target sequence (chain): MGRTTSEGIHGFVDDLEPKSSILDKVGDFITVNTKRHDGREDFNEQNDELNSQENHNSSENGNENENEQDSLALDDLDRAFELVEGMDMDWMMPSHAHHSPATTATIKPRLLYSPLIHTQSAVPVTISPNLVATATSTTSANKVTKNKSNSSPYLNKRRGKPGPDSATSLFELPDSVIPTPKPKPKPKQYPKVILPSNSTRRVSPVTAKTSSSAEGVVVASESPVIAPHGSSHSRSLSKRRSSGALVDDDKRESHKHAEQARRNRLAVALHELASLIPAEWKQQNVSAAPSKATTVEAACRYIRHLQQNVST
GTCATCGACCTTGAGCATGTGGTAGACTACATAATG: 13100 a.u.
CTCGAGGATTGCCTACGCGTGGGACTGATCCACCAA: 8000 a.u.
AAATTACTAAGTTTTCACGTGCACTACCCCGTATGA: 14400 a.u.
CTTCTGTAAATTTCACACGTGTTTTGACGCGCCCCG: 18400 a.u.
TGCGCAACAACTTGTCACAAGACTTTATGTCTAGAA: 3990 a.u.
CGGGCATGTTGCAAACGCGTGTGAAAAAAAAAGAGA: 10500 a.u.
GAAACTCCAAGACGGTACGTGAGATTTTGGAGAAGA: 3750 a.u.
CAATGGTTACTTCGACACATGCCACTAAGACAATAC: 10800 a.u.
ATAGCCGAAAGAGGAAATGTGATATGCCCACCTGTG: 6040 a.u.
TTGAGCTTATAAAAGCACGTGACGGCAATTCACCCC: 14800 a.u.
ATTACCCGTCTCCGTCACGTGAAGTAAAAATTTCCA: 12300 a.u.
CATACCCAACCTTGTGTTGTGGGTGAAGATATTTGT: 6050 a.u.
TGGGTAAGATTTCACCACGTGAGGAGCATAATATTG: 14600 a.u.
CGTCGTCTGGGACGTAGTGTGACAGGATGTCTTCCA: 4560 a.u.

Study 2
Target: CCNA1, cyclin fold, Cln2 fusion (human)
Technique: yeast growth competition, sequencing
Medium: yeast
Setting: weak parent motif
Reference: not given
Direction: higher = stronger binding
Measurement: normalised enrichment score
Starting sequence: PKN2 docking peptide (human); VSAVQKLDFSDTM
A3G: 0.105
F9P: 0.127
S10Q: -0.142
K6Y: 0.119
D8F: 0.106
K6A: 0.226
F9L: 0.195
A3C: 0.0851
L7R: 0.105
D11P: 0.19
T12A: 0.0431
D8Y: 0.16
D8G: 0.173
A3S: 0.221
S10K: 0.186
A3L: 0.0515
L7H: 0.311
T12W: 0.417
T12Q: 0.143
S10Y: 0.35
M13K: 0.211
K6V: 0.283

Study 3
Target: Histone acetyltransferase KAT6A, both winged helices, GST fusion (KAT6A, Homo sapiens, UniProt Q92794, residues 1-181)
Technique: protein binding microarray
Form: double-stranded DNA, one strand shown
Medium: in vitro
Tested at: not given
Setting: 8-mer, flanks averaged, mean of 2 arrays, mostly near background
Reference: not given
Direction: higher = stronger binding
Measurement: E-score
Residues (chain): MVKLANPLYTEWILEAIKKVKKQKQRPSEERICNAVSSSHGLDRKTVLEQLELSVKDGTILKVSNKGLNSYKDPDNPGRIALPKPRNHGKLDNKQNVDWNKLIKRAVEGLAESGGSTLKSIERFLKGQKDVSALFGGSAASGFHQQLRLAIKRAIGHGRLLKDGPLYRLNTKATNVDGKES
ACGGTAAG: 0.166
AACATTAA: -0.00304
CTCGGAGA: 0.0466
ACATAAAT: -0.0644
ATCACCCA: -0.157
GAGAGTGC: -0.0258
AATCTGTA: -0.124
CGACGGTA: 0.309
AGAGTCTC: -0.195
GCATATAA: 0.0513
CTACCCTC: -0.138
AAGTTTAG: -0.16
ACGTGAGC: -0.02
CCAGTATA: -0.207
CCCACACC: -0.125
GGTTGGAA: -0.0318

Study 4
Target: RNA binding protein fox-1 homolog 2, RRM domain, GST-SBP tag (RBFOX2, Homo sapiens, UniProt O43251-10, residues 100-194)
Technique: RNA Bind-n-Seq
Form: RNA
Medium: in vitro
Tested at: 365 nM
Setting: natural RNA segment, single round, ends assumed
Reference: no-protein control
Direction: higher = stronger binding
Measurement: RBNS enrichment (R)
All sequences stand within: GGGAGUUCUACAGUCCGACGAUC … UGGAAUUCUCGGGUGCCAA
Target sequence (chain): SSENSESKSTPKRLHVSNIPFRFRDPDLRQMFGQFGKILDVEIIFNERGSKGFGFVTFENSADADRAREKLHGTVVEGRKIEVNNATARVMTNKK
ACCAUAAUCCAGUGGGGGUGACUGGGUGCACACCUGCCCAGGUGAACACAGCGGCUGCCAGUCUCCUGGUCCCGAGAGGAGGUGGGGCCUGGCCCUGGCUCCCUCCAACC: 0.171
AAUGUCCCUUGCACAGCCCACACAUGAACCAUCCUUCCCAUGAUGCCGCUCUUCUGUCAUCCCGCUCCUGCUGAAACACCUCCCAGGGGCUCCACCUGUUCAGGAGCUGA: 0.904
UUUGUAUUUAUUGUGCCUUACAUAGGAAGGAAGGGACUCAACUGAAUCCCUCCUCCCUCUAAACAGUCCCCCAGAAAACAGGCUGGUGGCCAUGUGCUUUGCAUCUUUCU: 0.629
AGGCCCUUUGGCGUGGUACCAACCAGAUAAUGACUGCAUCAGGAUGAAAGCUGCUGAACUCGGCAUGGCGCCUCCUCUUCUCUGUUGGGAUGAGUGACUUUAUUGAUUUG: 1.52
UGUGAAACAGUGUGCUGUGUUUUGUACAAAGAUUUCACGAAAGGGAGAGUCCUUCUAAACCUAUAUUCUGCUCCACCGCAACUCCCUCACCUAUCCUCAGGCUCACAGUG: 0.438
UUGUAAAUGCUAAUUUUUUAGGACUCUAUUAGUCAGCAUAAAAUCUAUAUGAAGAAGAUGGACAUUUUAUCCUCUUAUGGUGAUGUUUUUUGGAAAUUUCCAUCAUCCUC: 3.05
AAGCUCUCUGUUCAGCUCCGCGUUCUCAUGCUUCUCAUGGGGUGGGAAAAGGGGGCAAAGCCCCCACUUUUUAUACACUAGGCGGGGUAGACUGCGGGGUCCUAGCCUCU: 0.335
AGUGACAGUUACUGCCCAGGGUCCAGCCAAGGACAGGUACAGGAAGGCAGAGAUCACUAUAGAGCCAAAAAUGACUGAAACUGAAGCAUCCAUCUGCUUCUCCAUUCCCU: 0.273
UUAUUCCACUGCUUCUCCCAGCAUUCUGGUGCCUCCAAGCCAUCCCCUCCCACCACCAGCUCUAAGAUUCUAGGAUAGUCUUGAUAACAUUUCAGUACCUGAAUAGAUGU: 0.861
UUUCCCCAGGCCUUUGCCCGCUUCUCCCUGGUCACCCUUGUCCAGUGUGAGUUUUGUCACAUUCUGGGCAGGUAGAGACGUGAAUGCUCUGUGGACCCUCCCCCUCUCCC: 1.02
UCUCUGAAUCUGUUAUGAACACGUUGGUUGGCUGGAUUCAGUAAUAAAUAUGUAAGGCCUUUCUUUUAAUUGCUGUUGUAUUGUGGUUUGUCAAUUACUGAAUUCUCCCU: 1.55
GCAAACACACUGAUGUAGGAAGCACGAGGAAAGGAAGACGUUUUGAUAUAGUGUUACUGUGAGCCUGUCAGUAGUGGGUACCAAUCUUUUGUGACAUAUUGUCAUGCUGA: 1.29

Study 5
Target: Interferon regulatory factor 5, full length, phosphomimetic (IRF5, Homo sapiens, UniProt Q13568-2, residues 1-514, K96S/S451D/S453D/S456D/S462D)
Technique: protein-binding microarray
Form: double-stranded DNA, one strand shown
Medium: in vitro
Tested at: 250 nM
Setting: 60-bp whole probe
Together with: salmon DNA 0.4 mg/ml
Reference: random background probes
Direction: higher = stronger binding
Measurement: log fluorescence
All sequences stand within: GCCTAGCAC … GTCTTGATTCGCTTGACGCTGCTG
ATAGGACTGGGGTTTCGGTTAGTGCTA: 6.39 z-score
TACGGTTTCCTTTCCCTGACGTGCTAG: 1.69 z-score
GACGGACTGGAACTGGGGACGTGCTAG: -0.597 z-score
GTAGTAATCTTAAGGCTGTCGTGCTAG: -0.359 z-score
GATGATATCAGACTGGAGACGTGCTAG: 0.247 z-score
TTAGGTATCGGGCATCGGTTAGTGCTA: 2.39 z-score
ACTCATTTTCGTTTTGTGTCGTGCTAG: 6.16 z-score
GACTGTTTCGACACTGGGGACGTGCTA: 4.91 z-score
CCAGTTTTCTTTTCATTACTGTGCTAG: 2.26 z-score
TTAGGTTTCGATACTGGGTTAGTGCTA: 9.41 z-score
GACGGTTCCGACACTGGGGACGTGCTA: -0.203 z-score
GACGGACTGGACACGGGGGACGTGCTA: -0.468 z-score
TTAGGTATCTACACTGGGTTAGTGCTA: 0.231 z-score
TCAGATTACATATATGTTACTGTGCTA: 0.435 z-score
GACGATATCTGTATCGAGACGTGCTAG: 1.86 z-score
TTAGGTTTCCTACTCCTTTAGTGCTAG: 0.403 z-score
TTAGAATTGAGTATCGATTAGTGCTAG: 7.13 z-score
TTAGGACTGGCACTGGGTTAGTGCTAG: -0.325 z-score
TCTCCTTTCGGAATACCCTCGTGCTAG: 7.3 z-score
TTAGACTTCGGGTATCGATTAGTGCTA: 3.67 z-score
TCAAACATCATTGTCATACTGTGCTAG: 0.213 z-score
TCAGGACTGGACTATCGGTTAGTGCTA: 5.67 z-score

Mixed results
PhoQ, residues 284 288 289 292 302 303 NLMGRA  fold induction (PhoP, residues 12 14 15 18 19 LQHIR (Escherichia coli, UniProt P23836); Sort-seq, refers to: YFP reporter; E. coli; PhoQ-PhoP variant library, together with: 10 µM Mg2+; reference: high Mg2+ state, higher = stronger signaling): 1.59

Excerpt of the above (study 1):
TGCGCAACAACTTGTCACAAGACTTTATGTCTAGAA: 3990 a.u.
CGGGCATGTTGCAAACGCGTGTGAAAAAAAAAGAGA: 10500 a.u.
GAAACTCCAAGACGGTACGTGAGATTTTGGAGAAGA: 3750 a.u.
CAATGGTTACTTCGACACATGCCACTAAGACAATAC: 10800 a.u.
